Measured values gathered from unrelated publications.
Compare with care: the assays were run in different laboratories. Numbers after ± are the reported error.

Structure (SMILES) | assay | test system | setting | tissue uptake
CCCC[C@@H]1NC(=O)[C@@H](NC(=O)[C@H](CCC(=O)O)NC(=O)CNC(=O)CN2CCN(CC(=O)O)CCN(CC(=O)O)CCN(CC(=O)O)CC2)CCCCNC(=O)C[C@@H](C(N)=O)NC(=O)[C@H](C(C)C)NC(=O)[C@@H]2CCCN2C(=O)[C@H](CCCNC(=N)N)NC(=O)CNC(=O)[C@H](Cc2c[nH]c3ccccc23)NC(=O)[C@H](CCCNC(=N)N)NC(=O)[C@@H](Cc2ccccc2)NC(=O)[C@H](Cc2c[nH]cn2)NC(=O)[C@H](CCC(=O)O)NC1=O [gallium-67 labelled] | – | normal C57 mice, muscle | intravenous, 0.037 MBq/mouse, 4 h | 0.05 ± 0.02 %ID/g
CCCC[C@H](NC(=O)CNC(=O)CNC(=O)CN1CCN(CC(=O)O)CCN(CC(=O)O)CCN(CC(=O)O)CC1)C(=O)N[C@H]1CC(=O)NCCCC[C@@H](C(N)=O)NC(=O)[C@H](Cc2c[nH]c3ccccc23)NC(=O)[C@H](CCCNC(=N)N)NC(=O)[C@@H](Cc2ccccc2)NC(=O)[C@H](Cc2c[nH]cn2)NC1=O [lead-203 labelled] | – | C57 mouse, bone | intravenous, 0.056 MBq, 4 h | 0.77 ± 0.35 %ID/g
O=C([O-])c1cccc(CN(CCN(Cc2cn(Cc3ccccc3)nn2)Cc2cccc(C(=O)[O-])n2)Cc2cn(Cc3ccccc3)nn2)n1.[64Cu+2] | – | healthy athymic nude mice, spleen | intravenous, 4 h | 3.72 %ID/g
CC(C)[C@H](NC(=O)[C@@H]1CCCN1C(=O)[C@H](CCCNC(=N)N)NC(=O)[C@H](CS)NC(=O)[C@H](Cc1c[nH]c2ccccc12)NC(=O)[C@H](CCCNC(=N)N)NC(=O)[C@@H](Cc1ccccc1)NC(=O)[C@H](Cc1c[nH]cn1)NC(=O)[C@H](CCC(=O)O)NC(=O)[C@H](CS)NC(=O)[C@H](CS)NC(=O)[C@@H]1CC(=O)N[C@@H](CCCNC(=N)N)C(=O)NCC(=O)N[C@@H](CC(=O)O)C(=O)N[C@H](Cc2ccc(O)cc2)C(=O)N1)C(N)=O [technetium-99m labelled] | – | C57 mouse, female, B16/F1 melanoma, stomach | intravenous, 0.037 MBq, 0.5 h | 4.49 ± 1.59 %ID/g
CCCC[C@H](NC(=O)CNC(=O)CNC(=O)CN1CCN(CC(=O)O)CCN(CC(=O)O)CC1)C(=O)N[C@H]1CC(=O)NCCCC[C@@H](C(N)=O)NC(=O)[C@H](Cc2c[nH]c3ccccc23)NC(=O)[C@H](CCCNC(=N)N)NC(=O)[C@@H](Cc2ccccc2)NC(=O)[C@H](Cc2c[nH]cn2)NC1=O [copper-64 labelled] | – | C57 mouse B16/F1 melanoma, heart | 0.5 h | 0.89 ± 0.29 %ID/g
CC(C)[C@H](NC(=O)[C@@H]1CCCN1C(=O)[C@H](CCCNC(=N)N)NC(=O)[C@H](CS)NC(=O)[C@H](Cc1c[nH]c2ccccc12)NC(=O)[C@H](CCCNC(=N)N)NC(=O)[C@@H](Cc1ccccc1)NC(=O)[C@H](Cc1c[nH]cn1)NC(=O)[C@H](CCC(=O)O)NC(=O)[C@H](CS)NC(=O)[C@H](CS)NC(=O)CNC(=O)[C@@H]1CC(=O)N[C@@H](CCCNC(=N)N)C(=O)NCC(=O)N[C@@H](CC(=O)O)C(=O)N[C@H](Cc2ccc(O)cc2)C(=O)N1)C(N)=O [technetium-99m labelled] | – | C57 mouse, female, B16/F1 melanoma, pancreas | intravenous, 0.037 MBq, 0.5 h | 1.74 ± 0.29 %ID/g
CCCC[C@H](NC(=O)CNC(=O)CNC(=O)CN1CCN(CC(=O)O)CCN(CC(=O)O)CC1)C(=O)N[C@H]1CC(=O)NCCCC[C@@H](C(N)=O)NC(=O)[C@H](Cc2c[nH]c3ccccc23)NC(=O)[C@H](CCCNC(=N)N)NC(=O)[C@@H](Cc2ccccc2)NC(=O)[C@H](Cc2c[nH]cn2)NC1=O [gallium-67 labelled] | – | female C57 mice, B16/F1 melanoma, liver | intravenous, 0.037 MBq, 2 h | 0.59 ± 0.09 %ID/g
O=C(O)C1CN(Cc2ccc(-c3noc(-c4ccc(OCC[18F])c(C(F)(F)F)c4)n3)cc2)C1 | – | Sprague-Dawley rat, male, normal, fat | iv, 30 min | 0.061 ± 0.003 %ID/g
O=C([O-])CN1CCN(CC(=O)[O-])CCN(CC(=O)NCCc2ccc3c(c2)C2C=CCC2C(c2cc4c(cc2Br)OCO4)N3)CCN(CC(=O)[O-])CC1.[111In+3] (centres unmarked) | – | mouse, Hec50 endometrial tumour, lungs | 2 h post injection | 0.8 ± 0.11 %ID/g
CN(C)c1ccc(-c2nc3ccc(OCCCCCN4CCN5CCN(CC4)CC(=O)[O][Al]([18F])[O]C(=O)C5)cc3s2)cc1 | – | ICR mouse, spleen | intravenous, 30 min | 1.76 ± 0.14 %ID/g
C[C@H](CN(C)Cc1ccccc1)NC(=O)c1ccc(-c2noc(C(F)(F)[18F])n2)cc1 | PET imaging | female Sprague-Dawley rats, brain | intravenous, 30 min | 1.57 ± 0.29 SUV

A few entries again:
Structure (SMILES) | assay | test system | setting | tissue uptake
CC(C)[C@H](NC(=O)[C@@H]1CCCN1C(=O)[C@H](CCCNC(=N)N)NC(=O)[C@H](CS)NC(=O)[C@H](Cc1c[nH]c2ccccc12)NC(=O)[C@H](CCCNC(=N)N)NC(=O)[C@@H](Cc1ccccc1)NC(=O)[C@H](Cc1c[nH]cn1)NC(=O)[C@H](CCC(=O)O)NC(=O)[C@H](CS)NC(=O)[C@H](CS)NC(=O)[C@@H]1CC(=O)N[C@@H](CCCNC(=N)N)C(=O)NCC(=O)N[C@@H](CC(=O)O)C(=O)N[C@H](Cc2ccc(O)cc2)C(=O)N1)C(N)=O [technetium-99m labelled] | – | C57 mouse, female, B16/F1 melanoma, stomach | intravenous, 0.037 MBq, 0.5 h | 4.49 ± 1.59 %ID/g
CCCC[C@@H]1NC(=O)[C@@H](NC(=O)[C@H](CCC(=O)O)NC(=O)CNC(=O)CN2CCN(CC(=O)O)CCN(CC(=O)O)CCN(CC(=O)O)CC2)CCCCNC(=O)C[C@@H](C(N)=O)NC(=O)[C@H](C(C)C)NC(=O)[C@@H]2CCCN2C(=O)[C@H](CCCNC(=N)N)NC(=O)CNC(=O)[C@H](Cc2c[nH]c3ccccc23)NC(=O)[C@H](CCCNC(=N)N)NC(=O)[C@@H](Cc2ccccc2)NC(=O)[C@H](Cc2c[nH]cn2)NC(=O)[C@H](CCC(=O)O)NC1=O [gallium-67 labelled] | – | normal C57 mice, muscle | intravenous, 0.037 MBq/mouse, 4 h | 0.05 ± 0.02 %ID/g
